# Results gathered from unrelated publications.
# Protocols differ between the studies behind these lines. Values joined by “and” are separate records of one study, mostly repeats; a detail may differ. ± marks the error that the study gave.
Molecule,target or system,test,system,setting,how to read,quantity,value
aspterric acid,,root length,Arabidopsis thaliana Col-0 seeds,"3.125 µg/mL, seed germination",baseline: water control,inhibition,8.83%
cucurbitacin B,MP38 (BAP1-mutant uveal melanoma),"cell viability, CellTiter-Glo",,72 h,,IC50,14.1 nM
LPLKMLNIPSINVH,stimulated healthy donor PBMCs,"combinatorial multi-epitope tetramer staining, refers to: DRB1*01:01 tetramer",peptide,concentration not given,baseline: CD4 T cells,antigen-specific CD4 T cells,0.52%
abamectin,HepG2,RNA-seq,,"10 µM, 24 h",,regulated quantifiable genes,5.6%
colistin,Aspergillus fumigatus,Alamar blue,,20 µM,,metabolic activity,100%
SFLLRNPNDKYEPF,BPAEC,fura-2,peptide,"100 µM, added: EGTA 5 mM",,sustained cytosolic Ca2+ increase,inhibited
nonaarginine,PorA peptide pore,"peptide binding, planar bilayer single-channel recording",,"0.5 µM, pH 7.4, +40 mV, trans side, 150 mM KCl",,koff,5000 ± 500 s⁻¹
KLPQLCTEV,Ca-Ski (HLA-A2+ HPV+),111In release,peptide,"concentration not given, 16 h, E:T 25:1 IVS 5, added: peptide-generated T-cell line",,specific lysis,70.8%
Tunicamycin,HEK293,"western blot, refers to: phospho-eIF2α over total eIF2α",,"10 µg/mL, 6 h, unit not given",baseline: mock,protein level,1.68 and 1.6 and 1.87
KLPQLCTEL,Ca-Ski (HLA-A2+ HPV+),111In release,peptide,"concentration not given, 16 h, E:T 25:1 IVS 5, added: peptide-generated T-cell line",,specific lysis,34.1%
insulin human,,refers to: SOD2 mRNA,"EcoHIV-infected mouse, brain","i.p., dose not given",baseline: PBS,fold change,1.17
KISEYRHYV,HN-30 (HLA-A2− HPV+),111In release,peptide,"concentration not given, 16 h, E:T 25:1 IVS 5, added: peptide-generated T-cell line",,specific lysis,5.5%
lead,glioblastoma,CCK-8,,"10 µM, 24 h, unit not given",baseline: untreated control,viability,0.57

# Some of these lines once more:
Molecule,target or system,test,system,setting,how to read,quantity,value
KLPQLCTEV,Ca-Ski (HLA-A2+ HPV+),111In release,peptide,"concentration not given, 16 h, E:T 25:1 IVS 5, added: peptide-generated T-cell line",,specific lysis,70.8%
